Published values from different studies.
Every numbered part comes from another study and shows a few of its results, in no order. Substitutions count along the parent as printed.

Set 1
Target: Ras GTPase-activating protein-binding protein 1, full length (G3BP1, Homo sapiens, UniProt Q13283)
Sequence of UniProt Q13283 (whole entry, looked up): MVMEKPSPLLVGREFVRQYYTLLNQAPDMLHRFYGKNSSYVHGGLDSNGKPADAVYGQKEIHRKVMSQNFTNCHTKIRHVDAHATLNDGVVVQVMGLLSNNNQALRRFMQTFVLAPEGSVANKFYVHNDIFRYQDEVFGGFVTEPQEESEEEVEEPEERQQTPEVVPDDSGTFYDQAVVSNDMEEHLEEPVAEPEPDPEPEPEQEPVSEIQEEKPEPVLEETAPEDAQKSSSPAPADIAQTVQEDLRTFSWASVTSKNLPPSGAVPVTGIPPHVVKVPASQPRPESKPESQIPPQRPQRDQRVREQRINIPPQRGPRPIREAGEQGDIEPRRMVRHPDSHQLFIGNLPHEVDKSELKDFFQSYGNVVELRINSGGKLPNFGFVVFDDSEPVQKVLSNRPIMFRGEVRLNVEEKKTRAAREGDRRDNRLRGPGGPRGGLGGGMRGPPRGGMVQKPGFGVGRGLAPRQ
Technique: RNA Bind-n-Seq
Molecule type: RNA
Matrix: in vitro
Concentration: 200 nM
Notes: whole 134-nt RNA, ends assumed
Together with: 150 mM LiCl
Baseline: input library
Reading: higher = stronger binding
All molecules: 7-deaza-guanosine replaces G
`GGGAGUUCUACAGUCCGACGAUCCUGUGCUACACAUCGUAUGUACCGAAUCGGCCCCCCCGGGCCCCCCCGGGGCCCCCCCGGGGAAAGUAUUAUGUUACGCCGUUCGGAUCUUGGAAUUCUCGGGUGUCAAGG` has a log2 enrichment of -0.338.
For `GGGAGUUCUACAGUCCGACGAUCAAGUCCUGUGCUACACAUCGUAUGUACCGAAUCGGGGUGGGGUUUGGGGAAAGGGGAAAGUAUUAUGUUACGCCGUUCGGAUCUGCACUUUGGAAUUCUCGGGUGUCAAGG`, the log2 enrichment was -0.483.
For `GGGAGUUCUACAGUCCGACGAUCCAAGUCCUGUGCUACACAUCGUAUGUACCGAAUCGGUUUUUGGAAAGGUUUUUGGAAAGUAUUAUGUUACGCCGUUCGGAUCUGCACUUCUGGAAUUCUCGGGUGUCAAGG`, the log2 enrichment was -1.36.
`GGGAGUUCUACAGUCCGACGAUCCAAGUCCUGUGCUACACAUCGUAUGUACCGAAUCGGGCCCGGGGCCCGGGCCCGGAAAGUAUUAUGUUACGCCGUUCGGAUCUGCACUUCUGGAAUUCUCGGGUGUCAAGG` gave a log2 enrichment of -1.49.
`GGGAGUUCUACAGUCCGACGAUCAAGUCCUGUGCUACACAUCGUAUGUACCGAAUCGGGAGGGAAAAAGGGUUUUUGGGAAAGUAUUAUGUUACGCCGUUCGGAUCUGCACUUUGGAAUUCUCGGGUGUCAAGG` gave a log2 enrichment of -1.09.
`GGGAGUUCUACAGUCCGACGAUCGGCAGUAGCAGCAGCGCCGGGUCCCGUGCGGAGGUGCUCCUCGCAGAGUUGUUUCUCGAGCAGCGGCAGUUCUCACUACAGCGCCAGGACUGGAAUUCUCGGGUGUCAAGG` has a log2 enrichment of -0.881.
`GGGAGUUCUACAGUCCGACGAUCCAAGUCCUGUGCUACACAUCGUAUGUACCGAAUCGGGGUUUGGGGUUUGGUUUGGAAAGUAUUAUGUUACGCCGUUCGGAUCUGCACUUCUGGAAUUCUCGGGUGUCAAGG` has a log2 enrichment of -0.305.
The log2 enrichment of `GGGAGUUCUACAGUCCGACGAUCAGUCCUGUGCUACACAUCGUAUGUACCGAAUCGGUUUUUUUGGAAAAAAAGGUUUGGAAAGUAUUAUGUUACGCCGUUCGGAUCUGCACUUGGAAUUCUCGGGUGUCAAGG` is reported as -3.48.
`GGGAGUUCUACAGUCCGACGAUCAAGUCCUGUGCUACACAUCGUAUGUACCGAAUCGGGGUUUGGGGUUUGGGGAGGGGAAAGUAUUAUGUUACGCCGUUCGGAUCUGCACUUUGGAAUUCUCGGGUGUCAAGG` has a log2 enrichment of -0.123.
`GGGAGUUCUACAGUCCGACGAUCUAAGGAUUCUAUCUGCUUACUGCUACAGACCUAUGUGUUAAGGAAUUCUUCUCCUCCUCCUUGCGUAGAAGUUGAUCAGCACUGUGGUCAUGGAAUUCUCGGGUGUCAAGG` gave a log2 enrichment of -0.188.
`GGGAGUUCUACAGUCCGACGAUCACCAUGCAGGUGGGCAUAAAUGGGAAGUGGGGCAAGGGGGGGAUAGGGAGGGGGGUAACACUUUGGGAACAGGUGGUCCCAGGUCGUUUCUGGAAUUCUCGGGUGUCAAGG` has a log2 enrichment of 0.166.

Set 2
Target: Interferon regulatory factor 5, full length, phosphomimetic (IRF5, Homo sapiens, UniProt Q13568-2, residues 1-514, K96S/S451D/S453D/S456D/S462D)
Technique: protein-binding microarray
Molecule type: double-stranded DNA, one strand shown
Matrix: in vitro
Concentration: 250 nM
Notes: 60-bp whole probe
Together with: salmon DNA 0.4 mg/ml
Baseline: random background probes
Reading: higher = stronger binding
Constant ends, left off below: GCCTAGCAC … GTCTTGATTCGCTTGACGCTGCTG
The log fluorescence of `AACGATATCAGACTGGAGACGTGCTAG` is reported as 0.651 z-score.
With `TTAGATATCGGGACTGGATTTGTGCTA` the log fluorescence was 1.35 z-score.
With `TTAGGACTGGGAGTGGGTTAGTGCTAG` the log fluorescence was -0.355 z-score.
`GGGAGTGTCAATAATGACCACGTGCTA` gave a log fluorescence of 0.00528 z-score.
`TTAGGACTGGGTTTCGCTTAGTGCTAG` gave a log fluorescence of 2.92 z-score.
`GAAGGTTTCGGTATCGGGACGTGCTAG` gave a log fluorescence of 9.73 z-score.
`AAGACCATCCTGTGTCTTAAAGTGCTA` gave a log fluorescence of -0.561 z-score.
`GACGCACTGGGTATCGGGACGTGCTAG` has a log fluorescence of 0.478 z-score.
With `TTAGTTCTCCTTTTCCTTTAGTGCTAG` the log fluorescence was 0.896 z-score.
`GACGATCTCGGTATCGGGACGTGCTAG` has a log fluorescence of 0.877 z-score.
With `TTAGGACTGGGGTACCGGTTAGTGCTA` the log fluorescence was -0.338 z-score.
For `CTCTCTTTCCACTTGTCTTTGTGCTAG`, the log fluorescence was 1.59 z-score.
`TTAGGTTACGACACTGGGTTAGTGCTA` has a log fluorescence of 0.157 z-score.
With `GACGATCTCAGTTTCGAGGCGTGCTAG` the log fluorescence was 3.65 z-score.
The log fluorescence of `GACGGATCCGGTTTCGGGACGTGCTAG` is reported as 3.37 z-score.
With `TTAGATTTCGGGTTTCGGTTAGTGCTA` the log fluorescence was 8.96 z-score.
The log fluorescence of `TGAGGTTTCCTTTCCCTTTAGTGCTAG` is reported as 1.72 z-score.
For `TTAGAACTGGGACTGGGTTAGTGCTAG`, the log fluorescence was -0.354 z-score.
With `TTAGGTTTCCTTCTACTTTAGTGCTAG` the log fluorescence was 1.25 z-score.
`GACGTTTTTCATTTTTTTTTGTGCTAG` has a log fluorescence of 1.38 z-score.
`TGAGGTATCCTTTTCCTTTAGTGCTAG` has a log fluorescence of 0.222 z-score.
The log fluorescence of `GGCGGACTGCTTCTCCTGACGTGCTAG` is reported as -0.715 z-score.
With `TTAGGATTGGGACTGGGTTAGTGCTAG` the log fluorescence was -0.0702 z-score.
With `GACCGTTTCCTTATCCTGACGTGCTAG` the log fluorescence was 0.753 z-score.
For `TTACCTCTCACGCATCTGAAAGTGCTA`, the log fluorescence was 0.695 z-score.

Set 3
Target: CCNB1, cyclin fold, Cln2 fusion (human)
Technique: yeast growth competition, sequencing
Matrix: yeast
Notes: strong parent motif
Baseline: not given
Reading: higher = stronger binding
Starting sequence: RBL2 docking peptide (human); STTRRRLFVENDS
For `E10H`, “normalised enrichment score” read 0.957.
`S13V` — result for “normalised enrichment score”: 0.116.
Under “normalised enrichment score”, `D12E` is recorded as 0.345.
`N11T` — result for “normalised enrichment score”: 1.02.
For `N11Y`, “normalised enrichment score” read 0.683.
For `R5Q`, “normalised enrichment score” read 1.52.
`T3M`: “normalised enrichment score” 0.398.
`S1W`: “normalised enrichment score” 1.
For `S1V`, “normalised enrichment score” read 0.95.
`T3Y` — result for “normalised enrichment score”: 1.17.
For `E10A`, “normalised enrichment score” read 0.457.
`N11L` — result for “normalised enrichment score”: 0.886.
For `D12F`, “normalised enrichment score” read -0.389.
Under “normalised enrichment score”, `R5K` is recorded as 1.31.
For `L7I`, “normalised enrichment score” read 1.16.
`D12L`: “normalised enrichment score” 0.198.
Under “normalised enrichment score”, `R5E` is recorded as 0.243.
For `R6D`, “normalised enrichment score” read 0.0153.
Under “normalised enrichment score”, `S13P` is recorded as 1.87.
`T3S` — result for “normalised enrichment score”: 0.367.
`R4I` — result for “normalised enrichment score”: 1.7.

Set 4
Target: Histone acetyltransferase KAT6A, winged helix 2, GST fusion (KAT6A, Homo sapiens, UniProt Q92794, residues 85-181)
Technique: protein binding microarray
Molecule type: double-stranded DNA, one strand shown
Matrix: in vitro
Concentration: not given
Notes: 8-mer, flanks averaged, mean of 2 arrays, mostly near background
Baseline: not given
Reading: higher = stronger binding
Target sequence (chain): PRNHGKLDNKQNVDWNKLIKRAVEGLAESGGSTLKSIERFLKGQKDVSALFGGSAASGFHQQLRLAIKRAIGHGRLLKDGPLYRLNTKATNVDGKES
For `ACTGACCA`, the E-score was -0.00438.
With `TCTCGGCA` the E-score was 0.0702.
For `ATCCTCTA`, the E-score was -0.111.
`CAAATGCG` gave an E-score of 0.0507.
For `AATTCGTA`, the E-score was 0.069.
The E-score of `GTGTAAAA` is reported as 0.0268.
With `AGGGTGTC` the E-score was 0.0809.
The E-score of `GTTAAGGA` is reported as 0.0673.
`CAGACATG` gave an E-score of -0.00323.
For `CCACGCGG`, the E-score was 0.181.
The E-score of `CACTTGGC` is reported as -0.0497.
With `CCTATTGA` the E-score was -0.0525.
`GGGGAACC` has an E-score of 0.0171.
`ATCCCTTC` gave an E-score of -0.0746.
`AACCTACG` gave an E-score of -0.00086.
The E-score of `ACCAGCTA` is reported as -0.0147.
For `CCTTTGCG`, the E-score was 0.112.
`AATCGGCC` gave an E-score of -0.00308.
With `ATCTTGGC` the E-score was -0.0934.
`CCGCAAGA` gave an E-score of 0.249.
For `ACTCCCCA`, the E-score was 0.0164.
For `GGGGACTA`, the E-score was 0.0713.
With `CCAGAGAA` the E-score was 0.000825.
For `ATTTTACC`, the E-score was 0.0465.
The E-score of `GAGAAAGC` is reported as 0.132.
